Assay results gathered from unrelated publications.
Numbered parts are unrelated; each lists some results of a single study.

Set 1
Target: Histone acetyltransferase KAT6A, winged helix 1, GST fusion (KAT6A, Homo sapiens, UniProt Q92794, residues 1-85)
Technique: protein binding microarray
Form: double-stranded DNA, one strand shown
Sample: in vitro
Concentration: not given
Setting: 8-mer, flanks averaged, mean of 2 arrays, mostly near background
Relative to: not given
Direction: higher = stronger binding
Residues (chain): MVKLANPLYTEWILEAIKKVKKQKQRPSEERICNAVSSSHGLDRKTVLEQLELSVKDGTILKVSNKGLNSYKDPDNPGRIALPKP
`CCTAGGAA` has an E-score of -0.143.
The E-score of `GCGTAGCA` is reported as 0.144.
`TACGAAGA` has an E-score of 0.0145.
`GCTCGTAA` has an E-score of -0.0841.
For `TGAGCACA`, the E-score was -0.267.
`AGTTTATA` gave an E-score of 0.0143.
The E-score of `CCGCTAGA` is reported as 0.178.
`AGCACCGG` gave an E-score of 0.198.
The E-score of `CAAGAGAA` is reported as -0.128.
The E-score of `CTCATCAG` is reported as -0.0936.
With `ACGCACGG` the E-score was 0.377.
With `AGATCACA` the E-score was -0.0933.
With `GCTTGGGA` the E-score was -0.182.
The E-score of `AGCGTCGA` is reported as -0.0101.
For `CGACCGGC`, the E-score was 0.224.
With `TATCATGA` the E-score was -0.115.
`AATATCAA` gave an E-score of -0.18.
The E-score of `GGTACGTA` is reported as -0.0388.
With `ACGCGAGC` the E-score was 0.213.
With `GACCTTGA` the E-score was -0.138.
With `CGCGAACG` the E-score was 0.273.

Set 2
Target: RNA binding protein fox-1 homolog 2, RRM domain, GST-SBP tag (RBFOX2, Homo sapiens, UniProt O43251-10, residues 100-194)
Technique: RNA Bind-n-Seq
Form: RNA
Sample: in vitro
Concentration: 365 nM
Setting: natural RNA segment, single round, ends assumed
Relative to: no-protein control
Direction: higher = stronger binding
All sequences stand within: GGGAGUUCUACAGUCCGACGAUC … UGGAAUUCUCGGGUGCCAA
Residues (chain): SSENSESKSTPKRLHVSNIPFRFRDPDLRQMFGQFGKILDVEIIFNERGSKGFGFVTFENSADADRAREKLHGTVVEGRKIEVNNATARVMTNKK
`UGAUUAGUUGAGUGACAGGAGUUAACAGUGAUAGUGGUUUGAGCUUUGUGUCUGUGACUCUUGUCUUCAUGGAGAUUCCAUUCUGACCCACUUCCUCAUGUCUAAACUGA` — result for “RBNS enrichment (R)”: 0.334.
`GAUGGGGAAAACAAGAAGGACAAAUAGGAUCCUGCAUUGUUUUUGCUUCCUCUCCUGUCAAUUUCAGGAACCUUUGAGGCCCAGUUCCAGCUAUAACCACAAUCCUUGCC`: “RBNS enrichment (R)” 0.802.
`UUGUGAAAGCUAACUUUAUGAUUUCAAGCACACUUUCUACAUGAGAAACCCCUAAUGUGUGUCCAUAUGAUCUUUCUGUACAUUCUAUUCUCUUACAAAUCUGUGCAUCA` — result for “RBNS enrichment (R)”: 0.763.
For `UCUCCCACAACACGUGGGAAUUCUGGUAGAUACAAUUUCAAGUUGAGAUUUGGGUGGGGACAUAGCCAAACCAUAUCAUUCUACCCCUGGCCCCUCCAAAUCUCAUGUCC`, “RBNS enrichment (R)” read 0.37.
`GAGUGCCCUUUUCUGGCACUCUCAGACCAAAAGUGUUUAUUGUGUCAUUUGUCCUUUGUCUAGGAGAGGACAGGACUCUCUUUUUCCUCUUCCUGGUAGUUGUAAUGACC` — result for “RBNS enrichment (R)”: 0.387.
`GGCUGUCACUGGCUGCUCGAGUCUCCAGCGUAAGCGCUUCACUUUGACUUAGGGUCAUAGUACGAGGGGAAUCCACUCCGUGGAAACCUCGGAAUGUCUGAGAAGGGAUA` — result for “RBNS enrichment (R)”: 0.452.
For `UUGCUGAUCCCUGGCUUGGAGCUCCUUGGGGGCCGGCAGGCCUCGACCCCCACCCUAGGGAAUGCAGAGCCUCUCCGCAUGUGUGCGCGUGGCCGUGUCUGUGUAUUUCU`, “RBNS enrichment (R)” read 0.513.
`UAGACUUGGACAUCUCUCUGGCUUCUGAAGAGCCUGAAGCUGGCCUGGACCAUUCCUGUCCCUUUGUUACCAUACUGUCUCUGGAGUGAUGGUGUCCUUCCCUGCCCCAC` — result for “RBNS enrichment (R)”: 0.383.

Set 3
Target: Fragile X messenger ribonucleoprotein 1, C-terminal low-complexity region (Fmr1, Mus musculus, UniProt P35922)
Technique: RNA Bind-n-Seq
Form: RNA
Sample: in vitro
Concentration: 200 nM
Setting: whole 134-nt RNA, ends assumed
Together with: 150 mM KCl
Relative to: input library
Direction: higher = stronger binding
All sequences stand within: GGGAGUUCUACAGUCCGACGAUC … UGGAAUUCUCGGGUGUCAAGG
For `UGGCCCUGGUGGCAUGCGGGGAGGAAGAGAUGGCCUCAUGGAUCGUGGUGGUCCCGGUGGAAUGUUCAGAGGUGGCCGUGGUGGAGACAG`, the log2 enrichment was -0.111.
With `UGGGAGGUGGAUUUUGUUUAUUUUUGUAGCUCAUUUCCAGGGGUGGGAAUUUUUUUUUAAUAUGUGUCAUGAAUAAAGUUGUUUUUGAAA` the log2 enrichment was 0.416.
`UCCUGUGCUACACAUCGUAUGUACCGAAUCGGAAAAAAGGGGAAAAAAGGGGAAAAAAGGAAAGUAUUAUGUUACGCCGUUCGGAUCUGC` gave a log2 enrichment of -0.459.
`AAGUCCUGUGCUACACAUCGUAUGUACCGAAUCGGGGUUUUGGUUUUGGGUUUUGGGAAAGUAUUAUGUUACGCCGUUCGGAUCUGCACU` has a log2 enrichment of -0.243.
With `AGUCCUGUGCUACACAUCGUAUGUACCGAAUCAAAUUUAAACCCCCCCAAACCCAAAAAAGUAUUAUGUUACGCCGUUCGGAUCUGCACU` the log2 enrichment was -0.123.
With `UGGGAGGUGGAUUUUGUUUAUUUUUUUAGCUCAUUUCCAGGGGUGGGAAUUUUUUUUUAAUAUGUGUCAUGAAUAAAGUUGUUUUUGAAU` the log2 enrichment was 0.329.

Set 4
Target: Interferon regulatory factor 5, full length, phosphomimetic (IRF5, Homo sapiens, UniProt Q13568-2, residues 1-514, S451D/S453D/S456D/S462D)
Technique: protein-binding microarray
Form: double-stranded DNA, one strand shown
Sample: in vitro
Concentration: 940 nM top
Setting: 60-bp whole probe
Together with: salmon DNA 0.4 mg/ml
Relative to: random background probes
Direction: higher = stronger binding
All sequences stand within: GCCTAGCAC … GTCTTGATTCGCTTGACGCTGCTG
`GCTGTCATCGATTTCTTCCCGTGCTAG` — result for “fitted relative affinity”: 0.392 z-score.
For `CCATCTCTCAAAAGTCACCCTGTGCTA`, “fitted relative affinity” read 0.49 z-score.
Under “fitted relative affinity”, `TTAGGTTTCGATATCGGTTAGTGCTAG` is recorded as 14.4 z-score.
Under “fitted relative affinity”, `TTAGGACTGGTTATCCTTTAGTGCTAG` is recorded as -0.24 z-score.
`TTAGGTTTCGCTTTCGGTTAGTGCTAG` — result for “fitted relative affinity”: 11.8 z-score.
For `GACGATATCCGGTTTCGAGACGTGCTA`, “fitted relative affinity” read 2.95 z-score.
`TCATGTCTGGATGTGCCACTGTGCTAG` — result for “fitted relative affinity”: -0.0305 z-score.
For `CTAGATCTCAGTATCGATTAGTGCTAG`, “fitted relative affinity” read 4.67 z-score.
For `GACGTTATCCTTTTCCTGACGTGCTAG`, “fitted relative affinity” read 0.913 z-score.
For `TGTTCATTTTCAAAACTGTTGTGCTAG`, “fitted relative affinity” read 0.672 z-score.
For `GCTTTCCCCTTGGACTCTTTGTGCTAG`, “fitted relative affinity” read 0.731 z-score.
`ATATGTAAGATATCCATATGGTGCTAG`: “fitted relative affinity” -0.446 z-score.
For `TCACATCTTGTTCCCAGACTGTGCTAG`, “fitted relative affinity” read 0.661 z-score.
Under “fitted relative affinity”, `GACGGTATCCTTCTCCTCACGTGCTAG` is recorded as 0.677 z-score.
`GACGAGCTGGGGACTGGAGACGTGCTA` — result for “fitted relative affinity”: -0.569 z-score.
For `GACGGTTTCGGACTGCGGACGTGCTAG`, “fitted relative affinity” read 6.49 z-score.
`TCAGGTCTCCTACTGCTTTAGTGCTAG` — result for “fitted relative affinity”: 0.0724 z-score.
`GACGATTCCGGTTTCGGGACGTGCTAG` — result for “fitted relative affinity”: 4.23 z-score.
`AGTGAATTAGGTTTCACTTTGTGCTAG`: “fitted relative affinity” 5.41 z-score.

Excerpt of the above (set 3):
With `UGGGAGGUGGAUUUUGUUUAUUUUUUUAGCUCAUUUCCAGGGGUGGGAAUUUUUUUUUAAUAUGUGUCAUGAAUAAAGUUGUUUUUGAAU` the log2 enrichment was 0.329.
With `UGGGAGGUGGAUUUUGUUUAUUUUUGUAGCUCAUUUCCAGGGGUGGGAAUUUUUUUUUAAUAUGUGUCAUGAAUAAAGUUGUUUUUGAAA` the log2 enrichment was 0.416.
`AAGUCCUGUGCUACACAUCGUAUGUACCGAAUCGGGGUUUUGGUUUUGGGUUUUGGGAAAGUAUUAUGUUACGCCGUUCGGAUCUGCACU` has a log2 enrichment of -0.243.
For `UGGCCCUGGUGGCAUGCGGGGAGGAAGAGAUGGCCUCAUGGAUCGUGGUGGUCCCGGUGGAAUGUUCAGAGGUGGCCGUGGUGGAGACAG`, the log2 enrichment was -0.111.
With `AGUCCUGUGCUACACAUCGUAUGUACCGAAUCAAAUUUAAACCCCCCCAAACCCAAAAAAGUAUUAUGUUACGCCGUUCGGAUCUGCACU` the log2 enrichment was -0.123.
`UCCUGUGCUACACAUCGUAUGUACCGAAUCGGAAAAAAGGGGAAAAAAGGGGAAAAAAGGAAAGUAUUAUGUUACGCCGUUCGGAUCUGC` gave a log2 enrichment of -0.459.
